Results gathered from unrelated publications.
Each numbered part is a random draw from the data of one study; scales do not carry over between parts. Substitutions count along the parent as printed.

Series 1
Target: UBE2D3 UBC core domain (UniProt P61077)
Method: yeast two-hybrid
Medium: yeast
Notes: mostly zero background
Reference: not given
Direction: higher = stronger interaction
Measurement: lacZ reporter activity
B1: TRIM72 RING domain (UniProt Q6ZMU5); chain APGLLHQELSCPLCLQLFDAPVTAECGHSFCRACLGRVAGEPAADGTVLCPCCQAPTRPQALST
B2: TRIM8 RING domain (UniProt Q9BZR9); chain WKNCFEEELICPICLHVFVEPVQLPCKHNFCRGCIGEAWAKDSGLVRCPECNQAYNQKPGLE
B3: CUL9 RING domain (UniProt Q8IWT3); chain AQAVPVRPDHCPVCVSPLGCDDDLPSLCCMHYCCKSCWNEYLTTRIEQNLVLNCTCPIADCPAQPTGAFIR
B4: TRIM69 RING domain (UniProt Q86WT6); chain VIQDITMELHCPLCNDWFRDPLMLSCGHNFCEACIQDFWRLQAKETFCPECKMLCQYNNCTF
Residues (chain): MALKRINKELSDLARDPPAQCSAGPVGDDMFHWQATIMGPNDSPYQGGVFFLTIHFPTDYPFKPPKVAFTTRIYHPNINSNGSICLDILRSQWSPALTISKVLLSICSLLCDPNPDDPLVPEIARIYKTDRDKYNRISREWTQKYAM
Molecule = B1 (TRIM72 RING domain); result = 0
Molecule = B2 (TRIM8 RING domain); result = 0
Molecule = FASPPDSNFVCSVCHGVLKRPARLPCSHIFCKKCILRWLARQKTCPCCRKEVKRKKVVH (RNF151 RING domain (UniProt Q2KHN1)); result = 0
Molecule = B3 (CUL9 RING domain); result = 0
Molecule = DAIPSLSECQCGICMEILVEPVTLPCNHTLCKPCFQSTVEKASLCCPFCRRRVSSWTRYH (RNF168 RING domain (UniProt Q8IYW5)); result = 0
Molecule = DDENSDNSNECVVCLSDLRDTLILPCRHLCLCTSCADTLRYQANNCPICRLPFRALLQIR (MGRN1 RING domain (UniProt O60291)); result = 0
Molecule = QLRRLQEERTCKVCMDKEVSIVFIPCGHLVVCKDCAPSLRKCPICRSTIKGTVRTF (BIRC3 RING domain (UniProt Q13489)); result = 0
Molecule = B4 (TRIM69 RING domain); result = 0
Molecule = FPEHFVKSISCQICEHILADPVETNCKHVFCRVCILRCLKVMGSYCPSCRYPCFPTDLES (RAG1 RING domain (UniProt P15918)); result = 0

Series 2
Target: Interferon regulatory factor 5, full length, phosphomimetic (IRF5, Homo sapiens, UniProt Q13568-2, residues 1-514, K96S/S451D/S453D/S456D/S462D)
Method: protein-binding microarray
Form: double-stranded DNA, one strand shown
Medium: in vitro
Concentration: 250 nM
Notes: 60-bp whole probe
With: salmon DNA 0.4 mg/ml
Reference: random background probes
Direction: higher = stronger binding
Measurement: log fluorescence
Constant ends, left off below: GCCTAGCAC … GTCTTGATTCGCTTGACGCTGCTG
Oligonucleotide = CGGCCTCTAGGTTTTCTGAAGTGCTAG; result = -0.458 z-score
Oligonucleotide = GACGGTTTCGGTATTGGGACGTGCTAG; result = 9.14 z-score
Oligonucleotide = GACGGTTTCCGTTCCGGGACGTGCTAG; result = 1.25 z-score
Oligonucleotide = GACGGTTTCGACGATCGGGACGTGCTA; result = 4.95 z-score
Oligonucleotide = TTAGGTTTCGGGGTTCGGTTAGTGCTA; result = 6.65 z-score
Oligonucleotide = TTCGGACTGGGGTATCGGTTAGTGCTA; result = 2.62 z-score
Oligonucleotide = ATGTGTTTACATATGTTTTTGTGCTAG; result = 0.725 z-score
Oligonucleotide = GACGATATCCGTTTCGAGACGTGCTAG; result = 2.6 z-score

Series 3
Target: HLA class I histocompatibility antigen, A alpha chain, allele A*80:01 (Homo sapiens, UniProt P04439)
Read-out: peptide-MHC binding
Form: peptide
Concentration: concentration not given
Measurement: binding
Molecule = MTRGILGSY; result = inactive
Molecule = FPIPTEVVA; result = inactive
Molecule = SSARYDVAL; result = inactive
Molecule = VVPSYIPLV; result = inactive
Molecule = FTFDLTALK; result = inactive
Molecule = ASLIPDATY; result = inactive
Molecule = LSDLCNFLV; result = inactive

Series 4
Target: CCNE1, cyclin fold, Cln2 fusion (human)
Method: yeast growth competition, sequencing
Medium: yeast
Notes: strong parent motif
Reference: not given
Direction: higher = stronger binding
Measurement: normalised enrichment score
Parent: viral docking peptide; TSVRRALFTGGSD
Variant = TSVRRALFTAGSD [G10A]; result = 5.76
Variant = TSVRRALFTGGID [S12I]; result = 5.45
Variant = TKVRRALFTGGSD [S2K]; result = 5.39
Variant = TSVRRALITGGSD [F8I]; result = 0.0455
Variant = TSVARALFTGGSD [R4A]; result = 2.75
Variant = TSVRRACFTGGSD [L7C]; result = 0.181
Variant = TSVRRALWTGGSD [F8W]; result = 3.39
Variant = TSVRRALFTGGTD [S12T]; result = 5.59
Variant = TSVRVALFTGGSD [R5V]; result = 0.418
Variant = TSVRRALFTGRSD [G11R]; result = 4.33
Variant = TSVRRALFTGGGD [S12G]; result = 5.48
Variant = TSVRRWLFTGGSD [A6W]; result = 1.36
Variant = TSVRRALFLGGSD [T9L]; result = 5.27
Variant = TSGRRALFTGGSD [V3G]; result = 0.805
Variant = TSVRRALFTGTSD [G11T]; result = 5.89
Variant = TSVRRATFTGGSD [L7T]; result = 0.0921
Variant = TSVRRTLFTGGSD [A6T]; result = 4.76
Variant = TSVRRALFTFGSD [G10F]; result = 4.16
Variant = TSVRRALFTGLSD [G11L]; result = 5.17
Variant = TSVRRNLFTGGSD [A6N]; result = 3.43
Variant = TSVRRALFPGGSD [T9P]; result = 5.45
Variant = TSVRRALFTGGWD [S12W]; result = 5.38
Variant = TSVRRAGFTGGSD [L7G]; result = 0.0195
Variant = TSVRRALFTGGQD [S12Q]; result = 5.8
Variant = TSVRRAAFTGGSD [L7A]; result = 0.107

Mixed results
Molecule = SMC2 (Homo sapiens, UniProt O95347); partner = KRT8 (Homo sapiens, UniProt P05787); assay = cross-linking MS; system = cells; setting = with: BSPNO; measurement = cross-linked residues; result = K772 to K198
